Assay results pooled from the literature.
A part holds a random share of what one study measured. Changes are numbered by the printed parent chain.

Set 1 — target: CCND1, cyclin fold, Cln2 fusion (human); method: yeast growth competition, sequencing; medium: yeast; notes: weak parent motif; relative to: not given; reading: higher = stronger binding; measurement: normalised enrichment score
Starting sequence: DBF4 docking peptide (human); DDIVSKLVFDFVE; partner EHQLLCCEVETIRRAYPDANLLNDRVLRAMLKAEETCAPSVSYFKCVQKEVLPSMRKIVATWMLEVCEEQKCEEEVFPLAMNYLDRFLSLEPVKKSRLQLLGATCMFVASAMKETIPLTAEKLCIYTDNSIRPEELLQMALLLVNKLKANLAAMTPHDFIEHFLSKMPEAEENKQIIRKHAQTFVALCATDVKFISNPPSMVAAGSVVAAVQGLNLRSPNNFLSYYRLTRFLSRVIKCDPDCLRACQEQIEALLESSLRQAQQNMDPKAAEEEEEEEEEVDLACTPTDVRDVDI
F11A: 0.73
V8A: 0.911
D1A: 0.639
D2A: 1.1
V4A: 0.865
V12A: 0.584

Set 2 — method: DHFR PCA, deep sequencing; medium: yeast; with: (+)-ABA 1.4 µM; relative to: wild-type fitted maximum; reading: higher = stronger binding; measurement: relative binding score
Target: ABI1, truncated, D143A, DHFR fusion (Arabidopsis thaliana)
Notes: methotrexate growth selection, single substitutions
Starting sequence: PYL1, truncated, DHFR fusion (Arabidopsis thaliana); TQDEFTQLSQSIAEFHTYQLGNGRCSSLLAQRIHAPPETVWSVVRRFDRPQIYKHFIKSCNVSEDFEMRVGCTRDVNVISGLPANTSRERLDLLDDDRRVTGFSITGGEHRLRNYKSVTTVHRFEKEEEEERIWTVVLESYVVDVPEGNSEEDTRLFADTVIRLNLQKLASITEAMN
L94H: 38.7%
H34F: 34.2%
T6N: 54.4%
V145A: -13.1%
V100N: -7.03%
T86W: 96.3%
D159N: 46.5%
V43S: -6.74%

Set 3 — method: RNA Bind-n-Seq; form: RNA; medium: in vitro; concentration: 1 µM; notes: whole 134-nt RNA, ends assumed; with: 150 mM KCl; relative to: input library; reading: higher = stronger binding; measurement: log2 enrichment
Target: Ras GTPase-activating protein-binding protein 1, C-terminal RGG region (G3BP1, Homo sapiens, UniProt Q13283)
Sequence of UniProt Q13283 (whole entry, looked up): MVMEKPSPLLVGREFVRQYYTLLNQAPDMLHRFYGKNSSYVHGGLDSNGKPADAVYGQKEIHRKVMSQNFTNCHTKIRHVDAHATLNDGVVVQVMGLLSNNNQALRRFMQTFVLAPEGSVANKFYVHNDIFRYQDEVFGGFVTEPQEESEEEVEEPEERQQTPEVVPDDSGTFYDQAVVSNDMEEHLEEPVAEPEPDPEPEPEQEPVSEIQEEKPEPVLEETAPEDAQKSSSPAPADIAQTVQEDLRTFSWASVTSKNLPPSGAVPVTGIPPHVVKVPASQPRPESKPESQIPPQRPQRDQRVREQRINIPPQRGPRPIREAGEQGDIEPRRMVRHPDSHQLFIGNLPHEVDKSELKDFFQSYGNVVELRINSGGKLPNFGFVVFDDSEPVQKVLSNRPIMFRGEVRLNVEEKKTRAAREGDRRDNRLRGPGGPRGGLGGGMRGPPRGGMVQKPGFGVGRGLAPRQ
Constant ends, left off below: GGGAGUUCUACAGUCCGACGAUC … UGGAAUUCUCGGGUGUCAAGG
UCCUGUGCUACACAUCGUAUGUACCGAAUCAAAUUUUUUUAAACCCAAAUUUUUUUAAAAAAGUAUUAUGUUACGCCGUUCGGAUCUGCA: -0.45
AGUCCUGUGCUACACAUCGUAUGUACCGAAUCGGGGAAAGGGGUGGGGAAAAAGGGGAAAGUAUUAUGUUACGCCGUUCGGAUCUGCACU: 1.45
CCUGUGCUACACAUCGUAUGUACCGAAUCGGGGUUUUUUUGGGGUUUGGGGAAAAAGGGGAAAGUAUUAUGUUACGCCGUUCGGAUCUGC: 0.232
CACAGACAACACGCACCCACACAGAAAAAGAGGGAAGGGGUUGGGAUGGGGACAGGGUGCACAGCAGGGCGGGGUAGGACCCCAGCCCCU: -0.44
GGACACAGCUUGGGCUAUGGCUUUGUGAACUACGUGACCGCGAAGGAUGCAGAGAGAGCGAUCAACACGCUGAACGGCUUGAGGCUCCAG: -1.97
CUGUGCUACACAUCGUAUGUACCGAAUCGGGGAAAAAAAGGGGAAAAAGGGGAAAAAGGGGAAAGUAUUAUGUUACGCCGUUCGGAUCUG: 0.122
UGGCCCUGGUGGCAUGCGGGGAGGAAGAGGGGGCCUCAUGGAUCGUGGUGGUCCCGGUGGAAUGUUCAGAGGUGGCCGUGGUGGAGACAG: 2.01
CAAGUCCUGUGCUACACAUCGUAUGUACCGAAUCGGGGUUUGGUUUGGGGUUUGGAAAGUAUUAUGUUACGCCGUUCGGAUCUGCACUUC: -1.03
GGCCCGACCUGAUCGACUUUGAUAAGCUGAAGGACUCCAAUGCCCGGCACAACCUGGAGCACGCAUUCAAUGUGGCUGAGCGCCAGCUGG: -0.663
AAGUCCUGUGCUACACAUCGUAUGUACCGAAUCGGGGAAAGGGGUUUGGGGUGGGGAAAGUAUUAUGUUACGCCGUUCGGAUCUGCACUU: 3.31
UGGGAGGUGGAUUUUGUUUACUUUUUUAGCUCAUUUCCAGGGGUGGGAAUUUUUUUUUAAUAUGUGUCAUGAAUAAAGUUGUUUUUGAAA: 1.92
UAACUUUAGAGGAGGAUCUGAUGGAUAUGGCAGUGGACGUGGAUUUGGGGAUAGCUAUAAUGGGUAUGGAGGAGGACCUGGAGGUGGCAA: -0.525
CUCAAGUCCUGUGCUACACAUCGUAUGUACCGAAUCGGUUGGGUUGGGUUGGGGAAAGUAUUAUGUUACGCCGUUCGGAUCUGCACUUCC: 0.196

Further values, each from its own experiment
PhoQ, residues 284 288 289 292 302 303 TAVSDG — fold induction (PhoP, residues 12 14 15 18 19 IQFRS (Escherichia coli, UniProt P23836); Sort-seq, refers to: YFP reporter; E. coli; PhoQ-PhoP variant library, with: 10 µM Mg2+; relative to: high Mg2+ state, higher = stronger signaling): 21.9

Some of these lines once more (set 3):
UGGGAGGUGGAUUUUGUUUACUUUUUUAGCUCAUUUCCAGGGGUGGGAAUUUUUUUUUAAUAUGUGUCAUGAAUAAAGUUGUUUUUGAAA: 1.92
AGUCCUGUGCUACACAUCGUAUGUACCGAAUCGGGGAAAGGGGUGGGGAAAAAGGGGAAAGUAUUAUGUUACGCCGUUCGGAUCUGCACU: 1.45
